# Results collected from several papers.
# Each numbered part is a random draw from the data of one study; scales do not carry over between parts.

# Set 1
# Target: Interferon regulatory factor 7, full length, phosphomimetic (IRF7, Homo sapiens, UniProt Q92985, residues 1-503, S471D/S472D/S475D/S476D/S477D/S483D/S484D/S487D)
# Method: protein-binding microarray
# Form: double-stranded DNA, one strand shown
# Matrix: in vitro
# Tested at: 2200 nM top
# Setting: 60-bp whole probe
# With: salmon DNA 0.4 mg/ml
# Relative to: random background probes
# Reading: higher = stronger binding
# All sequences stand within: GCCTAGCAC … GTCTTGATTCGCTTGACGCTGCTG
# Construct (chain): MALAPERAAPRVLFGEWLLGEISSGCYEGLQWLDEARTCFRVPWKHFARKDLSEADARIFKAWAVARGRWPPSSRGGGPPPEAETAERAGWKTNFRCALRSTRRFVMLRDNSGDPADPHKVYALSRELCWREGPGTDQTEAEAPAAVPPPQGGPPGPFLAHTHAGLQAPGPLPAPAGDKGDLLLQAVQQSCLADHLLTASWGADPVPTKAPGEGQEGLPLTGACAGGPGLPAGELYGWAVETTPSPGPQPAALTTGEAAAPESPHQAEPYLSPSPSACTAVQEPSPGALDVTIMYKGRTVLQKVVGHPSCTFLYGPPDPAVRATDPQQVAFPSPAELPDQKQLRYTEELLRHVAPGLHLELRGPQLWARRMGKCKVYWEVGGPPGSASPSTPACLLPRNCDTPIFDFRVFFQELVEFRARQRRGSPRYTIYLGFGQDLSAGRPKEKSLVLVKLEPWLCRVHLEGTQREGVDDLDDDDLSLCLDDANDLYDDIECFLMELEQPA
Oligonucleotide,fitted relative affinity
TTGGTTCTGATCCTTCCCCTCGTGCTA,1.69 z-score
TTAGGACTGCTTCTTCTTTAGTGCTAG,0.433 z-score
TGCTCCTTCTGACATCAACCCGTGCTA,1.4 z-score
GACGGTCTGGGGACTGGGGACGTGCTA,-0.459 z-score
TCAATTCCTGATCTCTGACTGTGCTAG,1.31 z-score
GAGGGACTGGGACTGGGGACGTGCTAG,-0.941 z-score
TTAGGACTGCTTCTCCTTTCGTGCTAG,1.39 z-score

# Set 2
# Target: Ras GTPase-activating protein-binding protein 1, RRM domain (G3BP1, Homo sapiens, UniProt Q13283)
# UniProt Q13283, sequence (whole entry, looked up): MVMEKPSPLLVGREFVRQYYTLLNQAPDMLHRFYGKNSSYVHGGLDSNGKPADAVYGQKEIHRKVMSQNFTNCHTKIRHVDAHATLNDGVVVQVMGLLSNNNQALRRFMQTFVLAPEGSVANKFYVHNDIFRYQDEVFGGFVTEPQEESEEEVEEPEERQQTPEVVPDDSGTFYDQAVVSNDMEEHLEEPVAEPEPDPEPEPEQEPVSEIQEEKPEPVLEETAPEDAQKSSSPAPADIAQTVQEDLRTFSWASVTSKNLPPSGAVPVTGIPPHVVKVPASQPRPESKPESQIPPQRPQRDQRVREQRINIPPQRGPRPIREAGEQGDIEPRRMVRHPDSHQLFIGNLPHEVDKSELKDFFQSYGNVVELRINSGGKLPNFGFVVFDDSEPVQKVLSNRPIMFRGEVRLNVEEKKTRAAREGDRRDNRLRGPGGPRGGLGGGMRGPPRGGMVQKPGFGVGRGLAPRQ
# Method: RNA Bind-n-Seq
# Form: RNA
# Matrix: in vitro
# Tested at: 1 µM
# Setting: whole 134-nt RNA, ends assumed
# With: 150 mM KCl
# Relative to: input library
# Reading: higher = stronger binding
# All sequences stand within: GGGAGUUCUACAGUCCGACGAUC … UGGAAUUCUCGGGUGUCAAGG
Oligonucleotide,log2 enrichment
UCAAGUCCUGUGCUACACAUCGUAUGUACCGAAUCGGGUUUGGGUUUGGUUUGGGAAAGUAUUAUGUUACGCCGUUCGGAUCUGCACUUC,-0.382
UGGGAGGUGUAUUUUGUUUAUUUUUUUAGCUCAUUUCCAGGGGUGGGAAUUUUUUUUUAAUAUGUGUCAUGAAUAAAGUUGUUUUUGAAA,1.52
GUCCUGUGCUACACAUCGUAUGUACCGAAUCGGGGAGGGGAAAAAAAGGGGUUUGGGGAAAGUAUUAUGUUACGCCGUUCGGAUCUGCAC,1.01
GUCCUGUGCUACACAUCGUAUGUACCGAAUCGGGGAAAAAGGGGAAAAAGGGGAGGGGAAAGUAUUAUGUUACGCCGUUCGGAUCUGCAC,1.07
GCAGGAAGUAAAAACAAAUGGAAAUGCUUCGGAUAGUGGCAGGGGUGGGGGUUGCUAAGGAAAGGGUGGGAAGGGAGUGGGUAAAGAGUU,1.26
UCAAGUCCUGUGCUACACAUCGUAUGUACCGAAUCGGUUUUGGUUUUGGUUUUGGAAAGUAUUAUGUUACGCCGUUCGGAUCUGCACUUC,-0.249

# Set 3
# Target: Histone acetyltransferase KAT6A, both winged helices, GST fusion (KAT6A, Homo sapiens, UniProt Q92794, residues 1-181)
# Method: protein binding microarray
# Form: double-stranded DNA, one strand shown
# Matrix: in vitro
# Tested at: not given
# Setting: 8-mer, flanks averaged, mean of 2 arrays, mostly near background
# Relative to: not given
# Reading: higher = stronger binding
# Target sequence (chain): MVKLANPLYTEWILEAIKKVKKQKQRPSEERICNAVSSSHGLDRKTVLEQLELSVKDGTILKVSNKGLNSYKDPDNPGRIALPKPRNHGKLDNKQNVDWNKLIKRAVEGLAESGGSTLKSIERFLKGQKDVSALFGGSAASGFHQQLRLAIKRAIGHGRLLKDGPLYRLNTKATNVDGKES
Oligonucleotide,E-score
ACGGGCCA,0.0742
ATAGACGA,-0.0539
GAGCATGC,-0.0861
CGGTAATC,0.222
ACATCCCC,0.0315

# Single results of other studies
Molecule,target,test,test system,setting,how to read,measurement,result
"PhoQ, residues 284 288 289 292 302 303 NSMLDC","PhoP, residues 12 14 15 18 19 VQGLL (Escherichia coli, UniProt P23836)","Sort-seq, item: YFP reporter",E. coli,"PhoQ-PhoP variant library, with: 10 µM Mg2+","relative to: high Mg2+ state, higher = stronger signaling",fold induction,14.2

# Repeated from above (set 1):
Oligonucleotide,fitted relative affinity
TTAGGACTGCTTCTCCTTTCGTGCTAG,1.39 z-score
TGCTCCTTCTGACATCAACCCGTGCTA,1.4 z-score
